# Results collected from several papers.
# Each line is one published result; not all experiments were run side by side. ± gives the spread as reported.
# Cell line: HEK293
Substance,effect on,technique,time,IC50 [µM]
C#CC[C@H](N)C(=O)NCC(=O)NCC(=O)N[C@@H](Cc1ccc(O)cc1)C(=O)N[C@@H](CC(N)=O)C(=O)N[C@@H](CC(C)C)C(=O)N[C@@H](CCCNC(=N)N)C(=O)N1CCC[C@H]1C(=O)N[C@@H](CCCNC(=N)N)C(=O)N[C@H](C(=O)N[C@@H](Cc1ccc(O)cc1)C(=O)N[C@@H](CCC(N)=O)C(=O)N1CCC[C@H]1C(=O)N[C@@H](CCC(N)=O)C(=O)N[C@@H](CCCNC(=N)N)C(=O)N[C@@H](Cc1ccc(O)cc1)C(=O)NCC(=O)NCC(N)=O)[C@@H](C)O,cell growth or viability,MTT,,> 200
[N-]=[N+]=[N-],oxygen consumption,,,243
Cc1ccc(NC(=O)Cn2cnc3ccccc3c2=O)c(O)c1,cell growth or viability,crystal violet,48 h,> 100
C=C(C)[C@H]1Cc2c(ccc3c2O[C@@H]2COc4cc(OC)c(OC)cc4[C@@H]2C3=O)O1,oxygen consumption,,,0.026 ± 0.011
CC[C@@]1(O)C(=O)OCc2c1cc1n(c2=O)Cc2cc3ccccc3nc2-1,cytotoxicity,MTT,48 h,0.54 ± 0.27
O=C(Cn1cnc2ccccc2c1=O)Nc1ncccc1O,cell growth or viability,crystal violet,48 h,> 100
Cc1ccc(C(C)C)cc1.[Cl][Ru]([Cl])[PH]12CN3CN(CN(C3)C1)C2,cell growth or viability,MTT,,> 200
C[C@@H]1CC[C@H]2[C@@H](C)C(=O)O[C@@H]3O[C@@]4(C)CC[C@@H]1[C@]32OO4,cell growth or viability,ATP luminescence,24 h,> 100
N.N.[Cl][Pt][Cl],cell growth or viability,MTT,,8
O=C(Cn1cnc2ccccc2c1=O)Nc1ccc(O)cc1[N+](=O)[O-],cell growth or viability,crystal violet,48 h,> 100
Antimycin A,oxygen consumption,,,0.006 ± 0.001

# Repeated from above:
Substance,effect on,technique,time,IC50 [µM]
C=C(C)[C@H]1Cc2c(ccc3c2O[C@@H]2COc4cc(OC)c(OC)cc4[C@@H]2C3=O)O1,oxygen consumption,,,0.026 ± 0.011
CC[C@@]1(O)C(=O)OCc2c1cc1n(c2=O)Cc2cc3ccccc3nc2-1,cytotoxicity,MTT,48 h,0.54 ± 0.27
